Measurements gathered from unrelated publications.
Each numbered part is a random draw from the data of one study; scales do not carry over between parts. Substitutions count along the parent as printed.

Study 1 — method: protein binding microarray; molecule type: double-stranded DNA, one strand shown; matrix: in vitro; concentration: not given; relative to: not given; reading: higher = stronger binding
Target: Histone acetyltransferase KAT6A, winged helix 2, GST fusion (KAT6A, Homo sapiens, UniProt Q92794, residues 85-181)
Notes: 8-mer, flanks averaged, mean of 2 arrays, mostly near background
Target sequence (chain): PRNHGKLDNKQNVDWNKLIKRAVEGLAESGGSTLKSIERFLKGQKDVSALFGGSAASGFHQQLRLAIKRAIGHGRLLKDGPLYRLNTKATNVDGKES
| Sequence | E-score |
| --- | --- |
| ACTTATCC | -0.117 |
| AATCAAGG | -0.046 |
| AAGTCGCG | 0.123 |
| CGAAGTGC | 0.168 |
| GAAAGCAC | 0.126 |
| GCGGTACC | 0.171 |
| ACGTCGCG | 0.0422 |
| AAGTGCGC | 0.036 |
| ATGATTTA | 0.0469 |

Study 2 — target: CCNB3, cyclin fold, Cln2 fusion (human); method: yeast growth competition, sequencing; matrix: yeast; notes: strong parent motif; relative to: not given; reading: higher = stronger binding
Parent: PKN2 docking peptide (human); VSAVRKLDFSDTM; partner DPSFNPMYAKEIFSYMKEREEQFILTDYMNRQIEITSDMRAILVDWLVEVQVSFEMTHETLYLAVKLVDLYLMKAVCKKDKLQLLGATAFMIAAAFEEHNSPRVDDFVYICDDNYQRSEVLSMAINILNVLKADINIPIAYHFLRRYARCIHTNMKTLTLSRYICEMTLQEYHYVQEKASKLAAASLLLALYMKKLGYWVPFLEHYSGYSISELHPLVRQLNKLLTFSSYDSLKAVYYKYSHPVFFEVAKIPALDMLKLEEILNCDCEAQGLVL
| Change | normalised enrichment score |
| --- | --- |
| S10I | 0.389 |
| D11I | 2.05 |
| S10G | 2.14 |
| L7P | -0.0766 |
| L7D | -0.325 |
| V4T | 0.326 |
| A3Y | 0.349 |
| V4S | 0.82 |
| V4Y | 0.242 |

Study 3 — method: RNA Bind-n-Seq; molecule type: RNA; matrix: in vitro; concentration: not given; relative to: input RNA pool; reading: higher = stronger binding
Target: RING finger protein unkempt homolog, zinc fingers 1-6, GST-SBP tag (UNK, Homo sapiens, UniProt Q9C0B0, residues 30-357)
Chain of UniProt Q9C0B0 (30-357, looked up): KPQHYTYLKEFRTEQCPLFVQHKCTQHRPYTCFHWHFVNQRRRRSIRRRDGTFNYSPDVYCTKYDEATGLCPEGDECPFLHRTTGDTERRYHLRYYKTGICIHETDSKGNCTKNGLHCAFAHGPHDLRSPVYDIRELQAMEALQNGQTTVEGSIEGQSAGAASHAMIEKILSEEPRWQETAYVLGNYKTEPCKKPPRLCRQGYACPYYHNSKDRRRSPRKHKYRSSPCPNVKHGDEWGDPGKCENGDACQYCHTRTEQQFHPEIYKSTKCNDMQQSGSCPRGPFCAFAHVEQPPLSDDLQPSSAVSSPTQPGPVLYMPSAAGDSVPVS
Notes: RNA with constant flanks, human and mouse sites, ends assumed
Shared flanks, not repeated: GGGAGUUCUACAGUCCGACGAUC … CAACAGAGGAUUGAGCAUCA
| Sequence | bound/input enrichment [ratio] |
| --- | --- |
| AUUUUUUUCCCCCACUGUCAGAAAGCUAAGGGAAGCUUCAGAGUUCUAAUCCAGUUGCAUGUAGGACAAAGGAUAUACUUUAAAUAAAGACCAUCUAUUGAGGUGCAGUAGGGAACCUCU | 0.676 |
| UACUACUUAUCUGUGUUUCUGGAGCUCUCAGCUGGCUUGCCUGAAACUUCUAAAUAUGAAUAUCGUGUAGAGAUGGUUCACCAGUCCUGUAAUGAUCCUACAAAAAAUAUCAUUCGAGAA | 0.238 |
| GAUCUUGAGAGUUUGGACAAACUUAUGAAAACUAAAAACAUACCUGAAGCUCACCAAGAUGCAUUUAAAACUGGUUUUGCAGAGGGUUUUCUCAAAGCUCAAGCUCUUACACAGAAGACC | 0.151 |
| AAGAAAAAGAGAGUGGUUGCAAAUGUCUCAGAACCAGAGACUCAAUACUCAGUCUUAAACAGUAAUGAUUAUUUUAUAGACGCUUCUCCUCCGAGGGCCACGUCCCCUUCUAACAAUGUG | 0.336 |
| GAGUGUGUGCUUGUGGAGUGGCGAGAUGGAUCAGAGAAGAACAAAGAGUUUCUUCCUCGAUUAGGAUCUUCUAUUGAGCACAUCUCUGUCUCACCUGCAGGAGAUUUGUUCUGUACUUCU | 0.113 |
| CAUGUGCAGGGUGAGGUUUUUUUUUGCCACCCUGGACACAUGUUGGCCCCCUCAAAGAAUUUCUGUGGGGAUUUGUACCCCAGAAUCCUGUUCCCCCAUCCCUUCUCCCACCUCCUCCCC | 0.741 |
| AAAUGACAAGCGAUAGGCUAUUGCAACCUGAGAAAGAGAACUGCUCCUUCAUCGUAAAUUUAGAAGACCAAGUAGAUAAUGGAACCAAAGUUGUUACUUUUUUCUAGUAGUUAUUUUUCC | 2.36 |
| UACAGCUCCGGGAAUGAGCCGGCAGAAAGCAACCAGGUGACACCGAUGCUGCGGCAUCUUAUGUACAAAAUAAAGUCUACAGGUCCCAUCACUGUGGCCGAGUACAUGAAGGAGGUUUUG | 0.178 |
| AACUCUAGAGCUCCCCCAAGACUGACUGUAGUGUCCCCUAACCGAGCUACUUCAACGGAAACUAGCUCAUCUGUAGAGACUGAUUUGCAACCCUUCCGGGAAGCCAUAGCUCUGCAUGGU | 1.04 |
| UAGCCGUAUGAGGCAAAAGCAGGUGUAGGAGACCCAGGAGCAGGACCCUUCCCUCAGUGGCAGGUUCCUUGUGCCAUCCCACAGAACCGGGAUGGACCCACAGAGGCUCAAGGGAGAUGU | 0.106 |
| CACAUUCAAGAAAGCCGAUUCUUAUAUCCUGGAAAGAAUGGCAGACUUGGAGACUUCUUCGGAGACCCUGGCAACCCUCCUGAAUUUAAUCCCUCUGGGAGUAAAGAUGGAAAAUACGAA | 0.138 |

Single results of other studies
| Substance | target | assay | test system | conditions | scale | endpoint | value |
| --- | --- | --- | --- | --- | --- | --- | --- |
| PhoQ, residues 284 288 289 292 302 303 SLGVVW | PhoP, residues 12 14 15 18 19 GQALL (Escherichia coli, UniProt P23836) | Sort-seq, refers to: YFP reporter | E. coli | PhoQ-PhoP variant library, added: 10 µM Mg2+ | relative to: high Mg2+ state, higher = stronger signaling | fold induction | 15.1 |

A few entries again (study 1):
| Sequence | E-score |
| --- | --- |
| AAGTGCGC | 0.036 |
| ATGATTTA | 0.0469 |
